{"data": "Measured values gathered from unrelated publications", "note": "Each numbered part is a random draw from the data of one study; scales do not carry over between parts.", "sequence of UniProt Q5VT25 (whole entry, looked up)": "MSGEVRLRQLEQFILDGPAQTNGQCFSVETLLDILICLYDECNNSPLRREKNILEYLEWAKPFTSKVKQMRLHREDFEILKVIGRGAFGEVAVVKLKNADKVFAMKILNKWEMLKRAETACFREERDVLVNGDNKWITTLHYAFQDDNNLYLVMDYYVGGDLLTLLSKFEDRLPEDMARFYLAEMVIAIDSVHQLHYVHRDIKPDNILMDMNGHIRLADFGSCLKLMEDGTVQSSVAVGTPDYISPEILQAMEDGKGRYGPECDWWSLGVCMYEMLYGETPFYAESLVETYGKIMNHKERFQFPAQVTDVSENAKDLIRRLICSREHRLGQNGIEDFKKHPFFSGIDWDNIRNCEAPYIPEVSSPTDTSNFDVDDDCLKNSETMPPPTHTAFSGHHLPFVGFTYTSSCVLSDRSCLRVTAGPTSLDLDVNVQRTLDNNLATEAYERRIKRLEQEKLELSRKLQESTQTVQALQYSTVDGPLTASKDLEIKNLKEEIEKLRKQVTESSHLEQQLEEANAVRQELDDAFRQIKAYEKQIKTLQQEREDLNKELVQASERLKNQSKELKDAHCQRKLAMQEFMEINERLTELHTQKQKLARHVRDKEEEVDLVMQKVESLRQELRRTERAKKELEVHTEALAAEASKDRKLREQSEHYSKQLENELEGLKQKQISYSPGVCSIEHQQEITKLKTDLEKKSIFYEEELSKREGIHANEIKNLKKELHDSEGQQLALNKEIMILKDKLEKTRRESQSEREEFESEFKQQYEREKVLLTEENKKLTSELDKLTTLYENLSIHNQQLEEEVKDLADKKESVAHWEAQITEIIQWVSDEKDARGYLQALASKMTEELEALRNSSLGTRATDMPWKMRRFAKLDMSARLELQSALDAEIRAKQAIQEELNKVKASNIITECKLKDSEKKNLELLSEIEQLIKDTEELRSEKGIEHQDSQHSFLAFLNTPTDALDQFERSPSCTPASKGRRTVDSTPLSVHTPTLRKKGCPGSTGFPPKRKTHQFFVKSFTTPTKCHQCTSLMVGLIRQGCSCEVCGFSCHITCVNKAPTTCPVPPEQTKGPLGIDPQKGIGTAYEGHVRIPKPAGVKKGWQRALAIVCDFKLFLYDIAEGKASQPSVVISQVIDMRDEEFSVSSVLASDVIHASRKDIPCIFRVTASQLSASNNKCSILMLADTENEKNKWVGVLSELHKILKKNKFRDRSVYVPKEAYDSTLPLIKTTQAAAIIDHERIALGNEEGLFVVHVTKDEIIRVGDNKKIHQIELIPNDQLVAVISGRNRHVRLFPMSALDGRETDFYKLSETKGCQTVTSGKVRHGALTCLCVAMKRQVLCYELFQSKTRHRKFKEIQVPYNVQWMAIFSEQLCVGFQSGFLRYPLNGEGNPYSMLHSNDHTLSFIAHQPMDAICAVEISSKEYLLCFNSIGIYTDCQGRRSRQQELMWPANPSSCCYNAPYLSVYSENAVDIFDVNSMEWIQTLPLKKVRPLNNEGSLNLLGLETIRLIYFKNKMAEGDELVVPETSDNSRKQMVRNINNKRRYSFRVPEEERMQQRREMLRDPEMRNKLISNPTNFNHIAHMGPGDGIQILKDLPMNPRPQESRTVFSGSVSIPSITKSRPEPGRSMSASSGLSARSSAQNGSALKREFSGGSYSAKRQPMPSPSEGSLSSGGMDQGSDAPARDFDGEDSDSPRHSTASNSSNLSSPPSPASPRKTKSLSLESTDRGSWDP", "sequence of UniProt P42679 (whole entry, looked up)": "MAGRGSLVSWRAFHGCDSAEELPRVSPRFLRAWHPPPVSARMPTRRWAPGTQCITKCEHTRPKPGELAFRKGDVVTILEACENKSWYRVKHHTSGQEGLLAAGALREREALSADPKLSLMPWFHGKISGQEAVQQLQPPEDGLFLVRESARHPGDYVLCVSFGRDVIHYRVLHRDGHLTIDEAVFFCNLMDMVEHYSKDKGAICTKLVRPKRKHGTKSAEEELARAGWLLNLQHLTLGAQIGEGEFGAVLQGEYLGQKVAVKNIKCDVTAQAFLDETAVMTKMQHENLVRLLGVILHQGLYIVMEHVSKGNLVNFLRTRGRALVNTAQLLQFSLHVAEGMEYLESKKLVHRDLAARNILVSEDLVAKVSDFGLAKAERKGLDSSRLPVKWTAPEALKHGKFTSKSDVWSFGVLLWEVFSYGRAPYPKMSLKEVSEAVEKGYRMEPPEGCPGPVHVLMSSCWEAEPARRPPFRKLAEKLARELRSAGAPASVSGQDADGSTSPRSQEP", "sequence of UniProt P42336 (whole entry, unmodified, looked up)": "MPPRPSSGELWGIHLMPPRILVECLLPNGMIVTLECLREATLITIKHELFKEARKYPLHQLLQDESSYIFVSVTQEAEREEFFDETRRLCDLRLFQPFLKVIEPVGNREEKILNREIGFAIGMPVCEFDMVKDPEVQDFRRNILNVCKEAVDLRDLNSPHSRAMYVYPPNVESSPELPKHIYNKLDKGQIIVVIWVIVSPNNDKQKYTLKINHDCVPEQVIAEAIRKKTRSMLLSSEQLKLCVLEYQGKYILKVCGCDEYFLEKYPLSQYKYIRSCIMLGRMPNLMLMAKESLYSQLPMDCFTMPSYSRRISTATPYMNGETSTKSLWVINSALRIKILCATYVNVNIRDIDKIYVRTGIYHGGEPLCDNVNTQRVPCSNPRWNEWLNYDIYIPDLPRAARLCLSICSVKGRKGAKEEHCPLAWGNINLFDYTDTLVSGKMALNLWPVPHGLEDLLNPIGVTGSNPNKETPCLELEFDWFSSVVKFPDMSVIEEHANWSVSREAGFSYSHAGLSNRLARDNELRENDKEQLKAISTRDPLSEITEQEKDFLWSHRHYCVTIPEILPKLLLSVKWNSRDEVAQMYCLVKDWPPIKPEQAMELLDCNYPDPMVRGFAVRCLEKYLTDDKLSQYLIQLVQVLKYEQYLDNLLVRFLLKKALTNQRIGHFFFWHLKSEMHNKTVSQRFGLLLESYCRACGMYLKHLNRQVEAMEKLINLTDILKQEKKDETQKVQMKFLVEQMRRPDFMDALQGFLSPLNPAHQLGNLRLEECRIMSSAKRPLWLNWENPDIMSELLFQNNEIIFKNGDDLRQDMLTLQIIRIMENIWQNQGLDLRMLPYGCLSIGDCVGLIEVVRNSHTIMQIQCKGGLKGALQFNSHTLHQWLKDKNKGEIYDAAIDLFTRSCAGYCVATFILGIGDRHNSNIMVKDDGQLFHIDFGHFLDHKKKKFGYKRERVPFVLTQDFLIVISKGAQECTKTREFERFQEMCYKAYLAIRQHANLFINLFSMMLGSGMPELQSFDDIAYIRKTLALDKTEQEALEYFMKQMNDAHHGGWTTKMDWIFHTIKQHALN", "sequence of UniProt P07332 (whole entry, looked up)": "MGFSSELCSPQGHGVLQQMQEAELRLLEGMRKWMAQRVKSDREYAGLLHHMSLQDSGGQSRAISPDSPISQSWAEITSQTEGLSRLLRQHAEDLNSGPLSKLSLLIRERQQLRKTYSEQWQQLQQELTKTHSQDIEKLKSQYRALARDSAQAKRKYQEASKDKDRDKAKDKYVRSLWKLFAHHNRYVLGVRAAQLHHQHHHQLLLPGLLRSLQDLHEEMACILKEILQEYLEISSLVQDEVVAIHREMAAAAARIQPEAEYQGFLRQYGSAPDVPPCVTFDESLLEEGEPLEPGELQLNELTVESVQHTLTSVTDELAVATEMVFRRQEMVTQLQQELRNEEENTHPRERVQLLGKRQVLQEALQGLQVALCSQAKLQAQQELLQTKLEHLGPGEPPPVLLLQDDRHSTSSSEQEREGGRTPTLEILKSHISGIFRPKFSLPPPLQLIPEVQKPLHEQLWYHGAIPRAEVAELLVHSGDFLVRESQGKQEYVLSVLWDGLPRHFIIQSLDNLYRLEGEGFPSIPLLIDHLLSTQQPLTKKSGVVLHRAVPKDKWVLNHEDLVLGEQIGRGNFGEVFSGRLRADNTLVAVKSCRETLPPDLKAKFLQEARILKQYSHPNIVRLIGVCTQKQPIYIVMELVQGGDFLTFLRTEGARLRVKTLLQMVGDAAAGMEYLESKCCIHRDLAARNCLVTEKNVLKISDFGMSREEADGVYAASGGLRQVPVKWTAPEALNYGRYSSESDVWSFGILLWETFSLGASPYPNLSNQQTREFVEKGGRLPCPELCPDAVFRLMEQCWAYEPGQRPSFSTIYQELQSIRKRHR"}
{"data": "Block 1", "target": "Calcium/calmodulin-dependent protein kinase type II subunit alpha (CAMK2A, Homo sapiens, UniProt Q9UQM7)", "effect on": "enzyme activity", "mode": "inhibitor", "concentration": "10 µM", "sequence of UniProt Q9UQM7 (whole entry, looked up)": "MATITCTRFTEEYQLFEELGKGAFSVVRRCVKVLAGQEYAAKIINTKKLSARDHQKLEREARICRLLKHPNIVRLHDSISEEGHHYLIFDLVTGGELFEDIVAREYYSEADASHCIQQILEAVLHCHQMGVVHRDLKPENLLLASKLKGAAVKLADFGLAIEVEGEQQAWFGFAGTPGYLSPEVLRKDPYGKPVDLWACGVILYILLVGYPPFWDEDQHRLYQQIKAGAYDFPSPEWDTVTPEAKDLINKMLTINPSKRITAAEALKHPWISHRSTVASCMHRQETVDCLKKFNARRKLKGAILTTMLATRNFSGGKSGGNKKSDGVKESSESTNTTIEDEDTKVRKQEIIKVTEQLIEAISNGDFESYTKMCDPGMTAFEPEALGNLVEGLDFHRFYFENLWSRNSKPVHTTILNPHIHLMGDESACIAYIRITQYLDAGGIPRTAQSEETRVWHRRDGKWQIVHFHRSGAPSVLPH"}
{"SMILES": "O=C(O)c1cc(O)cc(O)c1", "inhibition [%]": 10}
{"SMILES": "CCOc1ccc(C[C@H]2NC(=O)CCSSC[C@@H](C(=O)N3CCC[C@H]3C(=O)N[C@@H](CCCN)C(=O)NCC(N)=O)NC(=O)[C@H](CC(N)=O)NC(=O)[C@H]([C@@H](C)O)NC(=O)[C@H]([C@@H](C)CC)NC2=O)cc1", "inhibition [%]": -10}
{"SMILES": "CN1C(=O)OC(C)(C)C1=O", "inhibition [%]": -12}
{"SMILES": "OC[C@H]1O[C@@H](n2cnc3c2NC=NC[C@H]3O)C[C@@H]1O", "inhibition [%]": -3}
{"SMILES": "Nc1ccn([C@@H]2CS[C@H](CO)O2)c(=O)n1", "inhibition [%]": -3}
{"SMILES": "CCCC[C@@H]1OC(=O)C2=C1CCC=C2", "inhibition [%]": -14}
{"SMILES": "C/C=C(/C)C(=O)O[C@H]1C(C)=C[C@]23C(=O)[C@@H](C=C4COC(C)(C)O[C@H]4[C@]12O)[C@H]1[C@@H](C[C@H]3C)C1(C)C", "inhibition [%]": -43}
{"SMILES": "CC(=O)OC[C@]12[C@H](OC(C)=O)[C@H](OC(C)=O)[C@@H]3[C@@H](OC(C)=O)[C@@]14O[C@@]3(C)COC(=O)c1cccnc1CC[C@H](C)C(=O)O[C@@H]([C@H](OC(=O)c1ccoc1)[C@@H]2OC(C)=O)[C@]4(C)O", "inhibition [%]": -25}
{"SMILES": "COc1cc(C)c2c(=O)c(-c3ccccc3)coc2c1", "inhibition [%]": -5}
{"SMILES": "OCCc1c[nH]c2ccc(O)cc12", "inhibition [%]": -20}
{"SMILES": "C[C@H](CCC(=O)NCCS(=O)(=O)O)[C@H]1CC[C@H]2[C@@H]3C[C@H](O)[C@@H]4C[C@H](O)CC[C@]4(C)[C@H]3CC[C@]12C", "inhibition [%]": -16}
{"data": "Block 2", "Compound": "CC[n+]1c(/C=C/N(C)c2ccccc2)n(-c2ccccc2)c2ccc(-c3nc4ccccc4s3)cc21", "effect on": "enzyme activity", "mode": "inhibitor", "concentration": "0.5 µM", "baseline": "control"}
{"target": "LIM domain kinase 1 (LIMK1, Homo sapiens, UniProt P53667)", "remaining activity [%]": 98.3}
{"target": "AKT1 (Homo sapiens, UniProt P31749)", "remaining activity [%]": 104}
{"target": "MARK3 (Homo sapiens, UniProt P27448)", "remaining activity [%]": 98.8}
{"target": "ITK (Homo sapiens, UniProt Q08881)", "remaining activity [%]": 92.7}
{"target": "FLT4 (Homo sapiens, UniProt P35916)", "remaining activity [%]": 90.9}
{"target": "PKN1 (Homo sapiens, UniProt Q16512)", "remaining activity [%]": 85.7}
{"target": "NEK11 (Homo sapiens, UniProt Q8NG66)", "remaining activity [%]": 91.6}
{"target": "ALK (Homo sapiens, UniProt Q9UM73)", "remaining activity [%]": 99.1}
{"target": "TAOK3 (Homo sapiens, UniProt Q9H2K8)", "remaining activity [%]": 116}
{"target": "Cyclin-dependent kinase 3, with cyclin E (CDK3, Homo sapiens, UniProt Q00526)", "remaining activity [%]": 92.2}
{"target": "Insulin receptor (INSR, Homo sapiens, UniProt P06213)", "remaining activity [%]": 94}
{"target": "NLK (Homo sapiens, UniProt Q9UBE8)", "remaining activity [%]": 105}
{"target": "FER (Homo sapiens, UniProt P16591)", "remaining activity [%]": 98.9}
{"target": "PASK (Homo sapiens, UniProt Q96RG2)", "remaining activity [%]": 102}
{"target": "MATK (Homo sapiens, UniProt P42679)", "remaining activity [%]": 96.4}
{"target": "STK25 (Homo sapiens, UniProt O00506)", "remaining activity [%]": 96.5}
{"target": "FYN (Homo sapiens, UniProt P06241)", "remaining activity [%]": 99.2}
{"target": "SRC (Homo sapiens, UniProt P12931)", "remaining activity [%]": 94.5}
{"target": "FGR (Homo sapiens, UniProt P09769)", "remaining activity [%]": 94.1}
{"target": "CDC42BPA (Homo sapiens, UniProt Q5VT25)", "remaining activity [%]": 102}
{"data": "Block 3", "Structure (SMILES)": "CC(=O)N1CCC(c2ccc(C(=O)NC(=N)N)cc2C(F)(F)F)CC1", "technique": "competition with immobilised ligand", "concentration": "1 µM"}
{"target": "PIK3CB (Homo sapiens, UniProt P42338)", "effect on": "cell-free assay", "remaining binding [%]": 100}
{"target": "ALK (Homo sapiens, UniProt Q9UM73)", "effect on": "cell-free assay", "remaining binding [%]": 93}
{"target": "STK35 (Homo sapiens, UniProt Q8TDR2)", "effect on": "cell-free assay", "remaining binding [%]": 100}
{"target": "STK38L (Homo sapiens, UniProt Q9Y2H1)", "effect on": "binding", "remaining binding [%]": 99}
{"target": "CDC42BPA (Homo sapiens, UniProt Q5VT25)", "effect on": "cell-free assay", "remaining binding [%]": 100}
{"target": "MAK (Homo sapiens, UniProt P20794)", "effect on": "binding", "remaining binding [%]": 79}
{"target": "RET (Homo sapiens, UniProt P07949, V804M)", "effect on": "cell-free assay", "remaining binding [%]": 100}
{"target": "CSNK1G1 (Homo sapiens, UniProt Q9HCP0)", "effect on": "cell-free assay", "remaining binding [%]": 100}
{"target": "PRKACA (Homo sapiens, UniProt P17612)", "effect on": "cell-free assay", "remaining binding [%]": 100}
{"target": "Tyrosine-protein kinase ABL1, non-phosphorylated (ABL1, Homo sapiens, UniProt P00519, T315I)", "effect on": "cell-free assay", "remaining binding [%]": 95}
{"target": "MATK (Homo sapiens, UniProt P42679)", "effect on": "cell-free assay", "remaining binding [%]": 100}
{"target": "BRAF (Homo sapiens, UniProt P15056, V600E)", "effect on": "cell-free assay", "remaining binding [%]": 100}
{"target": "PRKACB (Homo sapiens, UniProt P22694)", "effect on": "cell-free assay", "remaining binding [%]": 100}
{"target": "CDK5 (Homo sapiens, UniProt Q00535)", "effect on": "cell-free assay", "remaining binding [%]": 87}
{"target": "STK17B (Homo sapiens, UniProt O94768)", "effect on": "cell-free assay", "remaining binding [%]": 100}
{"target": "PAK5 (Homo sapiens, UniProt Q9P286)", "effect on": "cell-free assay", "remaining binding [%]": 100}
{"target": "MAP3K7 (Homo sapiens, UniProt O43318)", "effect on": "cell-free assay", "remaining binding [%]": 100}
{"target": "MAPK6 (Homo sapiens, UniProt Q16659)", "effect on": "cell-free assay", "remaining binding [%]": 100}
{"target": "CSF1R (Homo sapiens, UniProt P07333)", "effect on": "cell-free assay", "remaining binding [%]": 100}
{"target": "SRPK3 (Homo sapiens, UniProt Q9UPE1)", "effect on": "cell-free assay", "remaining binding [%]": 100}
{"target": "PIK3CA (Homo sapiens, UniProt P42336, E545A)", "effect on": "cell-free assay", "remaining binding [%]": 100}
{"target": "BUB1 (Homo sapiens, UniProt O43683)", "effect on": "cell-free assay", "remaining binding [%]": 85}
{"target": "Ribosomal protein S6 kinase alpha-5, C-terminal kinase domain (RPS6KA5, Homo sapiens, UniProt O75582)", "effect on": "cell-free assay", "remaining binding [%]": 97}
{"target": "PIK3CA (Homo sapiens, UniProt P42336, E545K)", "effect on": "cell-free assay", "remaining binding [%]": 76}
{"target": "FES (Homo sapiens, UniProt P07332)", "effect on": "cell-free assay", "remaining binding [%]": 96}
{"data": "Block 4", "target": "Eukaryotic initiation factor 4A-I (EIF4A1, Homo sapiens, UniProt P60842)", "effect on": "RNA clamping", "technique": "fluorescence polarization", "concentration": "concentration not given", "setting": "mean of two replicates", "with": "FAM-labelled poly r(AG)8 RNA", "sequence of UniProt P60842 (whole entry, looked up)": "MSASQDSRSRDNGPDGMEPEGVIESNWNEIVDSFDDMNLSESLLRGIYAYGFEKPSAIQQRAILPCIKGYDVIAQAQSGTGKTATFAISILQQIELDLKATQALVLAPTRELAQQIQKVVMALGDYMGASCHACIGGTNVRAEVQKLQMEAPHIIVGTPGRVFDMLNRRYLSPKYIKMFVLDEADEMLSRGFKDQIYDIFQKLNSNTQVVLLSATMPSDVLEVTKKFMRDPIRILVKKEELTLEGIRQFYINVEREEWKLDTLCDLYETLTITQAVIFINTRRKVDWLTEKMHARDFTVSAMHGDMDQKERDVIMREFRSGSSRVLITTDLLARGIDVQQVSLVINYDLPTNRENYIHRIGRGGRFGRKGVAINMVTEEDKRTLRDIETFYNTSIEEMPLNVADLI"}
{"Compound": "C#CCCC(=O)O[C@@H]1[C@H](C(=O)c2ccco2)[C@@H](c2ccccc2)[C@]2(c3ccc(OC)cc3)Oc3cc(OC)cc(OC)c3[C@]12O", "fluorescence polarization change": "9.7 mP"}
{"Compound": "COC(=O)[C@@H]1[C@@H](c2ccccc2)[C@]2(c3ccc(OC)cc3)Oc3cc(OC)cc(OC)c3[C@@]23N=C(c2ccccc2)N[C@@]13O", "fluorescence polarization change": "28.4 mP"}
{"Compound": "C#CCOCCOCCNC(=O)CCCn1c(-c2ccccc2)nc2c(c1=O)[C@@H](c1ccccc1)[C@]1(c3ccc(OC)cc3)Oc3cc(OC)cc(OC)c3[C@]21O", "fluorescence polarization change": "21 mP"}
{"Compound": "COc1ccc([C@@]23Oc4cc(OC)cc(OC)c4[C@]2(O)[C@H](O)[C@H](C(=O)c2cc4ccccc4n2C)[C@H]3c2ccccc2)cc1", "fluorescence polarization change": "9.5 mP"}
{"Compound": "O=C1O[C@H]2[C@@H]1[C@H](c1ccccc1)[C@@]1(c3ccccc3)Oc3ccccc3[C@@]21O", "fluorescence polarization change": "7.2 mP"}
{"Compound": "CO/N=C(\\c1ccco1)[C@H]1[C@@H](O)[C@@]2(O)c3c(OC)cc(OC)cc3O[C@@]2(c2ccc(OC)cc2)[C@@H]1c1ccccc1", "fluorescence polarization change": "10.3 mP"}
{"Compound": "COC(=O)[C@H]1C(=O)[C@@]2(NCC3CCOCC3)c3c(OC)cc(OC)cc3O[C@@]2(c2ccc(OC)cc2)[C@@H]1c1ccccc1", "fluorescence polarization change": "-5.6 mP"}
{"Compound": "COC(=O)C1=C(OS(=O)(=O)c2ccc(C)cc2)[C@@]2(O)c3c(OC)cc(OC)cc3O[C@@]2(c2ccc(OC)cc2)[C@@H]1c1ccccc1", "fluorescence polarization change": "8.9 mP"}
{"Compound": "COc1ccc([C@@]23Oc4cc(OC)cc(OC)c4[C@]2(O)[C@@H](O)[C@H](C(=O)c2ccco2)[C@H]3c2ccccc2)cc1", "fluorescence polarization change": "27.4 mP"}
{"Compound": "COc1ccc([C@]23Oc4cc(OC)cc(OC)c4[C@](O)([C@H](C(=O)NCCCC(OC)OC)[C@H]2c2ccccc2)[C@@H]3O)cc1", "fluorescence polarization change": "0.9 mP"}
{"Compound": "COC(=O)C1=C(c2ccccc2)[C@]2(c3ccc(OC)cc3)Oc3cc(OC)cc(OC)c3[C@]2(O)C1=O", "fluorescence polarization change": "19 mP"}
{"Compound": "CCCN(CCC)[C@@]12C(=O)[C@H](C(=O)OC)[C@@H](c3ccccc3)[C@]1(c1ccc(OC)cc1)Oc1cc(OC)cc(OC)c12", "fluorescence polarization change": "4.2 mP"}
{"Compound": "COc1ccc([C@@]23Oc4cc(OC)cc(OC)c4[C@]2(O)[C@H](O)[C@H](C(=O)NOCc2ccccc2)[C@H]3c2ccccc2)cc1", "fluorescence polarization change": "7.1 mP"}
{"Compound": "C#CCCC1(CCOc2cc(OC)c3c(c2)O[C@@]2(c4ccc(OC)cc4)[C@H](c4ccccc4)[C@@H](C(=O)c4ccco4)[C@@H](O)[C@@]32O)N=N1", "fluorescence polarization change": "1.8 mP"}
{"Compound": "COC(=O)[C@@H]1[C@@H](c2ccccc2)[C@]2(c3ccc(OC)cc3)Oc3cc(OC)cc(OC)c3[C@@]23N2CCCCC2=N[C@@]13O", "fluorescence polarization change": "82.9 mP"}
{"Compound": "COc1ccc([C@@]23Oc4cc(OC)cc(OC)c4[C@]2(O)[C@H](O)[C@H](C(=O)NCCCC(OC)OC)[C@H]3c2ccccc2)cc1", "fluorescence polarization change": "61.5 mP"}
{"note": "Repeated from above (block 3):"}
{"target": "PAK5 (Homo sapiens, UniProt Q9P286)", "effect on": "cell-free assay", "remaining binding [%]": 100}
{"target": "MAP3K7 (Homo sapiens, UniProt O43318)", "effect on": "cell-free assay", "remaining binding [%]": 100}
{"target": "MATK (Homo sapiens, UniProt P42679)", "effect on": "cell-free assay", "remaining binding [%]": 100}
{"target": "CSF1R (Homo sapiens, UniProt P07333)", "effect on": "cell-free assay", "remaining binding [%]": 100}
{"target": "Tyrosine-protein kinase ABL1, non-phosphorylated (ABL1, Homo sapiens, UniProt P00519, T315I)", "effect on": "cell-free assay", "remaining binding [%]": 95}
{"target": "MAPK6 (Homo sapiens, UniProt Q16659)", "effect on": "cell-free assay", "remaining binding [%]": 100}
{"target": "BUB1 (Homo sapiens, UniProt O43683)", "effect on": "cell-free assay", "remaining binding [%]": 85}
{"target": "CDC42BPA (Homo sapiens, UniProt Q5VT25)", "effect on": "cell-free assay", "remaining binding [%]": 100}
{"target": "PIK3CB (Homo sapiens, UniProt P42338)", "effect on": "cell-free assay", "remaining binding [%]": 100}
{"target": "STK35 (Homo sapiens, UniProt Q8TDR2)", "effect on": "cell-free assay", "remaining binding [%]": 100}
